# Earlier results as cited in several papers.
# Each line is one published result; not all experiments were run side by side. Values joined by “and” are separate records of one study, mostly repeats; a detail may differ. Numbers after ± are the reported error.
Compound,target or system,test,system,conditions,scale,measurement,value
Cc1ccc(Cn2cc(CN3C(=O)C4(C(C#N)=C(N)Nc5c4ccc4[nH]c6ccccc6c54)c4ccccc43)nn2)cc1 (centres unmarked),HeLa,cell growth,,,,IC50,4.05 µM
c1ccc2c(-c3nnc(-c4c[nH]c5ccccc45)o3)c[nH]c2c1,HeLa,,,,,IC50,0.02 µM
COc1cc(N2CCN(C(=O)CCOCCOCCOCCNC(=O)CN)CC2)ccc1Nc1ncc(Cl)c(Nc2ccccc2P(C)(C)=O)n1,H3122,cell growth,,,,IC50,0.84 µM
O=C1OCC2=C1C(c1ccccc1[N+](=O)[O-])C1=C(N2)C(=O)c2ccccc2C1=O (centres unmarked),SK-LU-1 cells,cell growth,,,,IC50,0.08 ± 0.01 µM
CN1C(=O)[C@@H](Cc2ccc(O)cc2)NC(=O)CNC(=O)[C@H](Cc2ccc3ccccc3c2)NC(=O)[C@H](CCCNC(=N)N)NC(=O)[C@H]1CCCNC(=O)c1ccc(CNC(=O)CN2CCN(CC(=O)O)CCN(CC(=O)O)CCN(CC(=O)O)CC2)cc1 [gallium-68 labelled],,PET dosimetry,"human patients, lungs",,,absorbed dose coefficient,0.011 mGy/MBq
CC1=C(C)C(=O)OC(C(C)(O)C2CCC3C4CC5OC56C(O)C=CC(=O)C6(C)C4CCC32C)C1 (centres unmarked),Hep3B,cell growth,,,,IC50,1 µM
"CNC(=O)N[C@]1(C)CCC[C@@]2(C)C3CC[C@@]4(C)C[C@]3(CCC21)CC4=O (single isomer, unassigned)",HBV-transfected cells,HBsAg secretion,,,,IC50,7.89 µg/mL
CCN(CC)c1ccc2c(c1)Oc1cc(N(CC)CC)ccc1C21c2ccccc2C(=O)N1N=Cc1ccnc(-c2cc(C)ccn2)c1.Cc1c(C)c(-c2ccc(-c3ccccc3)cc2)[c-](C)c1C.F[P-](F)(F)(F)(F)F.[Cl-].[Ir+3],HepG2 cancer cells,,,,,IC50,5.1 ± 0.1 µM
COc1ccc(/C=C/C(=N)/C=C2/C(=O)Nc3cc(Br)ccc32)cc1,H1650,cell growth,,,,IC50,> 100 µM
CNCCCOc1cc(F)c(-c2c(Cl)nc3ncnn3c2NCC(F)(F)F)c(F)c1,HEK293,,,"1 µM, 4 h, unit not given",reference: vehicle (DMSO),total α-tubulin level,0.69 ± 0.03
O=C1NCC(Cc2ccccc2)N(CC2CCCN2CC(CC2CCCCC2)N2CC(Cc3ccc(O)cc3)N(CCc3ccccc3)C(=O)C2=O)C1=O (centres unmarked),B16-F10,viability,,,,IC50,3 ± 0.2 µM
Cc1cccc(NC(=O)Nc2nnc(SCc3nc4ccccc4c(=O)[nH]3)s2)c1,PC-3,cell growth,,,,IC50,17.7 µM
CC(=O)OCC1=C(C)CC(C(C)C2CCC3C4CC5OC56C(OC(C)=O)C=CC(=O)C6(CO)C4CCC23C)OC1=O (centres unmarked),Hs-578T,cell growth,,,,IC50,0.46 µM
CCC1=C(O)c2c(oc(-c3ccc(OC)c4ccccc34)cc2=O)C(CC)(CC)C1=O,HCT-8,"cell growth, SRB",,,,IC50,3.35 µM
C[C@@H](Nc1c(-c2c(F)cc(C#CCCN)cc2F)c(Cl)nc2ncnn12)C(C)(C)C,HEK293,,,"1 µM, 4 h, unit not given",reference: vehicle (DMSO),acetylated α-tubulin level,2.49 ± 0.17
Cc1ccc(C(C)C)cc1.F[B-](F)(F)F.[Cl][Ru+].[Fe+2].c1cc[cH-]c1.c1ccc(P(c2ccccc2)N([c-]2cccc2)P(c2ccccc2)c2ccccc2)cc1,A2780R platinum-resistant ovarian cancer,cell growth,,,,IC50,3.1 µM
CC(=O)OC1CC2C3C(OC(C)=O)C4OC45C(O)C=CC(=O)C5(C)C3CCC2(C)C1C(C)(O)C1CC(C)=C(C)C(=O)O1 (centres unmarked),BC1,cell growth,,,,IC50,0.38 µM
CC1=CCC23OC2(C)CCC2C(CN(C)C)C(=O)OC2C13.Cl (centres unmarked),,,CA-755 breast adenocarcinoma model,"ip and intratumoural, dose not given",,tumour growth inhibition,86 to 90%
O=C1OCC2=C1C(c1cccc([N+](=O)[O-])c1)C1=C(N2)C(=O)c2ccccc2C1=O (centres unmarked),MCF7 cells,cell growth,,,,IC50,2.19 ± 0.02 µM
COc1ccccc1NC(=O)N[C@H](C(=O)Nc1ccc(C(=O)NO)cc1)c1ccccc1,U-937,"cell viability, MTT",,,,IC50,1.3 µM and 1.31 µM
CCC1=C(O)c2c(oc(-c3ccc4ccccc4c3)cc2=O)C(CC)(CC)C1=O,PC-3,"cell growth, SRB",,,,IC50,2.58 µM
COc1cc([C@H]2Oc3cc4c(cc3C(=O)[C@]2(Cl)[N+](=O)[O-])OCO4)cc(OC)c1OC,L1210,cell growth,,,,IC50,6 µM
O=C1c2ccccc2NC(c2ccc(Cl)c([N+](=O)[O-])c2)N1/N=C/c1ccc(Cl)c([N+](=O)[O-])c1 (centres unmarked),human renal tubule TH-1,cytotoxicity,,,,IC50,> 1000 µM
CC(=O)OC1C2C3CCC(C(C)(O)C4CC(C)=C(C)C(=O)O4)C3(C)CCC2C2(C)C(=O)C=CC(O)C23OC13 (centres unmarked),Lu1,cell growth,,,,IC50,3.58 µM
CC(C)=CCC[C@@H](C)[C@H]1C[C@H](O)[C@@]2(C)C3=CC[C@H]4C(C)(C)[C@@H](O)CC[C@]4(C)C3=CC[C@]12C,NCI-H187,cell growth,,,,IC50,45.5 µM
COc1cc(/C=C/C(=O)NCCc2ccc(O)c(OC)c2)ccc1O,RAW264.7,nitric oxide production,,"24 h, with: LPS 100 ng/mL",,IC50,> 50 µM
Fc1cc2nc3c4cccnc4c4ncccc4c3nc2cc1F.[Cl-].[Cl-].[Ru+2].c1ccncc1.c1ccncc1.c1ccncc1.c1ccncc1,L-O2,phototoxicity,,light irradiation,,IC50,30 ± 2.1 µM
CC1=C2[O][Ru-]([Cl])[O+]=C2C=CN1CCCN1C=CC2=[O+][Ru-]([Cl])[O]C2=C1C.Cc1ccc(C(C)C)cc1.Cc1ccc(C(C)C)cc1,SW480,MTT,,,,IC50,62 ± 14 µM
CC(=O)O[C@H]1C2=C(C(=O)C(O)=C(C(C)C)C2=O)[C@@]2(C)CCCC(C)(C)[C@@H]2[C@@H]1O,UACC-62,,,,,GI50,≤ 5 µM
CC(C)(C)C1=CC(=NNC(=O)c2ccncc2)C=C(C(C)(C)C)C1=O,HC04,cell viability,,,,IC50,28 µM
CC1=C2[O][Ru-]([Cl])[O+]=C2C=CN1CCCCCCCCCCCCN1C=CC2=[O+][Ru-]([Cl])[O]C2=C1C.Cc1ccc(C(C)C)cc1.Cc1ccc(C(C)C)cc1,SW480,MTT,,,,IC50,0.29 ± 0.05 µM
COc1cc(/C=C/C(=O)NCCc2ccccc2)ccc1O,RAW264.7,nitric oxide production,,"24 h, with: LPS 100 ng/mL",,IC50,14.4 ± 2.1 µM
O=S(=O)(Cc1ccccc1Cn1cc(CNc2ncnc3ccccc23)nn1)c1ccccc1,BT-20,cell growth,,,,IC50,24.6 µM
COC1CC(=O)C2(CO)C3CCC4(C)C(C(C)C5CC(C)=C(CO)C(=O)O5)CCC4C3CC3OC32C1O (centres unmarked),Hs-578T,cell growth,,,,IC50,8.43 µM
Oc1cccc(-c2cccc(O)n2)n1.[Cl-].[Cl-].[Ru+2].c1cnc2c(c1)c1c(c3cccnc32)OCCO1.c1cnc2c(c1)c1c(c3cccnc32)OCCO1,MCF-10A,cell viability,,dark,,IC50,58 µM
Cc1ccc(C2C3=C(COC3=O)NC3=C2C(=O)c2ccccc2C3=O)cc1 (centres unmarked),MCF7 cells,cell growth,,,,IC50,> 2.5 µM
CC1=C(CO)C(=O)O[C@@H]([C@@H](C)[C@H]2CC[C@H]3[C@@H]4C[C@H]5O[C@]56[C@@H](O)C=CC(=O)[C@]6(C)[C@H]4CC[C@]23C)C1,L5178Y,cell growth,,,,IC50,0.64 µM
CC(C)(O)c1ncc([S@](N)(=O)=NC(=O)Nc2c3c(cc4c2CCC4)CCC3)s1,"human PBMC, monocytes, macrophages",IL-1β release,,"free concentration, range, with: LPS",,IC50,0.001 to 0.0029 µM
C=CC(=O)N1CCC[C@@H](n2nc(-c3ccc4ccccc4c3)c3c(N)ncnc32)C1,"EGFR (Homo sapiens, UniProt P00533, L858R/T790M)",,,,,kinact/Ki,3.42e+06 ± 1.44e+06 M⁻¹ s⁻¹
O=C1c2ccccc2NC(c2ccc([N+](=O)[O-])cc2)N1/N=C/c1ccc([N+](=O)[O-])cc1 (centres unmarked),human renal tubule TH-1,cytotoxicity,,,,IC50,896 µM
COc1cc(OC)cc(C2=C3C(C)=C(I)C(C)=[N+]3[B-](F)(F)n3c(C)c(I)c(C)c32)c1,HEp-2,phototoxicity,,with: light 1.5 J/cm^2,,IC50,4 µM
O=C1OCC2=C1C(c1cccc(Br)c1)C1=C(N2)C(=O)c2ccccc2C1=O (centres unmarked),HEK293 cells,cell growth,,,,IC50,7.2 ± 0.05 µM
CNC(=O)OCc1c(COC(=O)NC)c(-c2ccc(OC)cc2)n2c1Cc1ccccc1-2,H460,,,,,IC50,63.8 µM
CC1=C(CO)C(=O)OC(C(C)C2CCC3C4CC5OC56C(O)C(OS(=O)(=O)O)CC(=O)C6(CO)C4CCC23C)C1 (centres unmarked),Hs-578T,cell growth,,,,IC50,3.4 µM
C[C@@H]1COCCN1c1nc(-c2cnc(N)nc2)nc2c1C[C@@H]1COCCN21,A2058,measured: phospho-S6 Ser235/236,,,,IC50,0.055 ± 0.0055 µM
CCC1=C(O)c2c(oc(-c3cc4ccccc4s3)cc2=O)C(CC)(CC)C1=O,HCT-8,"cell growth, SRB",,,,IC50,19 µM
c1ccc(Cn2cc(COc3ccc(-c4nc5ccc(C6=NCCN6)cc5[nH]4)cc3)nn2)cc1,A549,,,,,IC50,0.07 µM
CCN(CC)CC(=O)Nc1cccc(-n2cc(-c3ccc4ccc(-c5cn(-c6cccc(NC(=O)CN(CC)CC)c6)nn5)cc4c3)nn2)c1,RCC4,,,,,IC50,1.4 µM
Oc1cccc(-c2cccc(O)n2)n1.[Cl-].[Cl-].[Ru+2].c1cnc2c(c1)ccc1cccnc12.c1cnc2c(c1)ccc1cccnc12,HeLa,cell viability,,dark,,IC50,1440 µM
CCNc1cc2c(cc1C)C1(c3cc(C)c(NCC)cc3O2)c2ccccc2C(=O)N1N=Cc1ccnc(-c2cc(C)ccn2)c1.Cc1c(C)c(-c2ccc(-c3ccccc3)cc2)[c-](C)c1C.F[P-](F)(F)(F)(F)F.[Cl-].[Ir+3],HepG2 cancer cells,,,,,IC50,5.5 ± 0.7 µM
COCCOCCOCCOCCC(=O)NCc1cc(CNC(=O)CCOCCOCCOCCOC)cc(-c2cc3cc4nc(c(OC)c5[nH]c(cc6nc(cc2[nH]3)CC6(C)C)cc5-c2cc(CNC(=O)CCOCCOCCOCCOC)cc(CNC(=O)CCOCCOCCOCCOC)c2)CC4(C)C)c1,,,PBS,room temperature,,integrated Qy/B absorption ratio,0.49
CCC1=C(O)c2c(oc(-c3ccc4cc(OC)ccc4c3)cc2=O)C(CC)(CC)C1=O,KB,"cell growth, SRB",,,,IC50,10.8 µM
[Cl-].[Cl-].[Ru+2].c1ccc(-c2ccccn2)nc1.c1ccc(-c2ccccn2)nc1.c1cnc2c(c1)ccc1cccnc12,B16-F10,,,light irradiation,,IC50,> 100 µM

# A few entries again:
Compound,target or system,test,system,conditions,scale,measurement,value
CC(=O)O[C@H]1C2=C(C(=O)C(O)=C(C(C)C)C2=O)[C@@]2(C)CCCC(C)(C)[C@@H]2[C@@H]1O,UACC-62,,,,,GI50,≤ 5 µM
CC(C)(C)C1=CC(=NNC(=O)c2ccncc2)C=C(C(C)(C)C)C1=O,HC04,cell viability,,,,IC50,28 µM
CC1=C2[O][Ru-]([Cl])[O+]=C2C=CN1CCCCCCCCCCCCN1C=CC2=[O+][Ru-]([Cl])[O]C2=C1C.Cc1ccc(C(C)C)cc1.Cc1ccc(C(C)C)cc1,SW480,MTT,,,,IC50,0.29 ± 0.05 µM
COc1cc(/C=C/C(=O)NCCc2ccccc2)ccc1O,RAW264.7,nitric oxide production,,"24 h, with: LPS 100 ng/mL",,IC50,14.4 ± 2.1 µM
O=S(=O)(Cc1ccccc1Cn1cc(CNc2ncnc3ccccc23)nn1)c1ccccc1,BT-20,cell growth,,,,IC50,24.6 µM
COC1CC(=O)C2(CO)C3CCC4(C)C(C(C)C5CC(C)=C(CO)C(=O)O5)CCC4C3CC3OC32C1O (centres unmarked),Hs-578T,cell growth,,,,IC50,8.43 µM
Oc1cccc(-c2cccc(O)n2)n1.[Cl-].[Cl-].[Ru+2].c1cnc2c(c1)c1c(c3cccnc32)OCCO1.c1cnc2c(c1)c1c(c3cccnc32)OCCO1,MCF-10A,cell viability,,dark,,IC50,58 µM
